Published values pooled from the literature.
Every numbered part comes from another study and shows a few of its results, in no order. Substitutions count along the parent as printed.

Block 1
Target: UBE2R2 UBC core domain (UniProt Q712K3)
Technique: yeast two-hybrid
Sample: yeast
Setting: mostly zero background
Baseline: not given
Reading: higher = stronger interaction
Quantity: lacZ reporter activity
B1: RNF38 RING domain (UniProt Q9H0F5); chain PNNHQSEQTLCVVCMCDFESRQLLRVLPCNHEFHAKCVDKWLKANRTCPICRADASEVHRDS
B2: TRIM13 RING domain (UniProt O60858); chain MELLEEDLTCPICCSLFDDPRVLPCSHNFCKKCLEGILEGSVRNSLWRPAPFKCPTCRKETSATGINS
B3: TRAF5 RING domain (UniProt O00463); chain FVERLEERYKCAFCHSVLHNPHQTGCGHRFCQHCILSLRELNTVPICPVDKEVIKSQEVFK
B4: SH3RF2 RING domain (UniProt Q8TEC5); chain DDLTLLDLLECPVCFEKLDVTAKVLPCQHTFCKPCLQRVFKAHKELRCPECRTPVFSNIEAL
B5: TRIM4 RING domain (UniProt Q9C037); chain EAEDIQEELTCPICLDYFQDPVSIECGHNFCRGCLHRNWAPGGGPFPCPECRHPSAPAALRP
Residues (chain): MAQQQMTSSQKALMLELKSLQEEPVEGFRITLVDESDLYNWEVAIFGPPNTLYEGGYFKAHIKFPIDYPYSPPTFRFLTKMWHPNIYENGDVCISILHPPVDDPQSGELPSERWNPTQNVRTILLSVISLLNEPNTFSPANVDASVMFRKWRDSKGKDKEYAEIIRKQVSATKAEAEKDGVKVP
FQGDVDEDLICPICSGVLEEPVQAPHCEHAFCNACITQWFSQQQTCPVDRSVVTVAHLRP (RNF41 RING domain (UniProt Q9H4P4)): 0
B1 (RNF38 RING domain): 0
DHGAVGQEMCCPICCSEYVKGEVATELPCHHYFHKPCVSIWLQKSGTCPVCRCMFPPPL (PJA1 RING domain (UniProt Q8NG27)): 0
VEPSEENSKDCVVCQNGTVNWVLLPCRHTCLCDGCVKYFQQCPMCRQFVQESFALC (CGRRF1 RING domain (UniProt Q99675)): 0
B2 (TRIM13 RING domain): 0
B3 (TRAF5 RING domain): 0
B4 (SH3RF2 RING domain): 0
PAELEVQASECVVCLEREAQMIFLNCGHVCCCQQCCQPLRTCPLCRQDIAQRLRIY (LRSAM1 RING domain (UniProt Q6UWE0)): 0
B5 (TRIM4 RING domain): 0

Block 2
Target: RING finger protein unkempt homolog, zinc fingers 1-6, SBP tag (UNK, Homo sapiens, UniProt Q9C0B0, residues 30-357)
Sequence of UniProt Q9C0B0 (30-357, looked up): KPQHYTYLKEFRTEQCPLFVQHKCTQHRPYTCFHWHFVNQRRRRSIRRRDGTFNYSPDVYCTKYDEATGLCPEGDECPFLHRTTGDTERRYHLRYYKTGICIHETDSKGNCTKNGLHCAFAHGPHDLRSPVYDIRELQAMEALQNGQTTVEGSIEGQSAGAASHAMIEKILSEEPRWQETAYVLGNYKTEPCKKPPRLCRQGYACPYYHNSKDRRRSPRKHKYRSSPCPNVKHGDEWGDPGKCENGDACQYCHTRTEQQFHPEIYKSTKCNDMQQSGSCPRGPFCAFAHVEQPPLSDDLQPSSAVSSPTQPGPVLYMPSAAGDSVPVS
Technique: RNA Bind-n-Seq
Form: RNA
Sample: in vitro
Tested at: 100 nM
Setting: RNA with constant flanks, vertebrate orthologous sites, ends assumed
Baseline: input RNA pool
Reading: higher = stronger binding
Quantity: bound/input enrichment
Shared flanks, not repeated: GGGAGUUCUACAGUCCGACGAUC … CAACAGAGGAUUGAGCAUCA
AUCCCUCAGUGACAGUAUGCCAUCUGUAGCAGAUUCUCACUCUAGUCAUUUUUCUGAAUUUAGUUGUUCUGACCUAGAAAGCAUGAAAACUUCUUGUAGUCAUGGUUCUAGUGAUUAUCA: 2.16 ratio
UAUUUUUGCACAUGACAGUUUGUUUUGAGGAUCUUCAGAGGAAGGAAGAGAGGGGUGUUGUAAUAGUGGUACCUGGGUUCCUGGCCUCCCAGUGCGCCAUCACCCCACCUGGCACCUUUG: 0.851 ratio
UAAUGUGUUUUUAUUUAUUGAAAAUCGUUUUGUGGUAAGGAUUGUGUUAGAUUUACAAAUUAGUGAAUUGAUUCCUCUUUGUUGUGUUGCUUUCAUUGUUGAAAAUAAAUAGAACUUUGA: 0.799 ratio
CUUUUGUGUGAAAUAUGUCUACCCAGAGAAGUAUCACCUUAUAAAUAUUAUCAAAUAACUUAGCUAGAGUCUUCUUAGGUGUUAGAUUAUAUGUCAAGCAUUUAAGGUGAAUUUGAGAUG: 0.23 ratio
UAAUUUUAGGAUGAAGCUAUUAAAGCAGGUGUCACGAGUGUGGCAAACAGAUGGACUGAACUCUUGUUACUAUAACCUGCUGUCUGUGAAACACAAUCCUUUAUAUAUCAAUAUCACAGU: 0.608 ratio
UAACUGAGUGCUUAAGCUGCCAAUAGUUAUGCUAUUUAUUUGUGUCUGUAAGUUUGUACAUAGUAAUGCCAGCCUUGUUGCUGAAUUUUUUAUUUGGGGGUGGGGGGAUGAGUUUGAAUU: 1.57 ratio
GAGCUAAAGGAGUUAGCAUCUUUAUUUUUGUAUCAAAGAUAAAGGUUAUUUUGAAAUUAUUAGGAUUUUUACACAACUCUGAAAUCUGUUGCUUUUGUAAACAAAUUGUUUGAUCUUAGG: 0.68 ratio
ACAAGAUUUGGACCUUGGAGCAGAACCAGUUAGCAAAAGGAAAGCAAGCUUGUAAAAUUAUAGCCAUAUGCAGCUGCACAACAGUACUUCCACUAGCAACUGUAUUGAAGUAUUUAUACA: 1.23 ratio
GAGGAUUAGGUUCGAUCCUUUACGUGUUAAAAAAGAAAGCGUAAAAACAUUUUUAAAACAUAGAAAAAUUCAGCAAACCAUUUUUAAAGUAGAAGAGGGUUUUAGGUAGCAAAACGUAUU: 1.1 ratio

Block 3
Target: Ras GTPase-activating protein-binding protein 1, full length (G3BP1, Homo sapiens, UniProt Q13283)
Sequence of UniProt Q13283 (whole entry, looked up): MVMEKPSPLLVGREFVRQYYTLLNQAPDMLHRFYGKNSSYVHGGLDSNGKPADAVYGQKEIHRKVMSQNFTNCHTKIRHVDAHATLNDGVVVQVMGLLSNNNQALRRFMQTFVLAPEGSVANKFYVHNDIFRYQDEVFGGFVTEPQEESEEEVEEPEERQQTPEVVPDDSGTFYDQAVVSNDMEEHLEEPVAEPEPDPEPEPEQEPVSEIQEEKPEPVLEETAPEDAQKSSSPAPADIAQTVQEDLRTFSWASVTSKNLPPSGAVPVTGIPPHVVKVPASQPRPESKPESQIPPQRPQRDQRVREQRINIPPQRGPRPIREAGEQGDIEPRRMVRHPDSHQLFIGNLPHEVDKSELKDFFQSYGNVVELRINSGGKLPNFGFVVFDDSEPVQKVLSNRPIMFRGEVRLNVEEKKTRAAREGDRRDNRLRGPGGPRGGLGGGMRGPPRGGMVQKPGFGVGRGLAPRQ
Technique: RNA Bind-n-Seq
Form: RNA
Sample: in vitro
Tested at: 200 nM
Setting: whole 134-nt RNA, ends assumed
Together with: 150 mM LiCl
Baseline: input library
Reading: higher = stronger binding
Quantity: log2 enrichment
Each molecule: 7-deaza-guanosine replaces G
Shared flanks, not repeated: GGGAGUUCUACAGUCCGACGAUC … UGGAAUUCUCGGGUGUCAAGG
CAAGUCCUGUGCUACACAUCGUAUGUACCGAAUCGGAAAGGGGAAAGGAAAGGGGAAAGUAUUAUGUUACGCCGUUCGGAUCUGCACUUC: 0.064
UGAAAAGAACUGCUCUCCAUGGAGAGAGUAACUCUGUCCUUAUUAUCGGACCCCGAGGAUCAGGAAAAACUAUGGUAAAAGCUGUUGAUU: -2.87
AGUCCUGUGCUACACAUCGUAUGUACCGAAUCGGGGAAAAAGGGGAAAGGGGAGGGGAAAGUAUUAUGUUACGCCGUUCGGAUCUGCACU: -0.046
UGUAGAAAAGGCACUGGACUAACACUUGGCUGUAUCUUGUAACAGGCAUGUUAUGUUACCCAGAGAACUUUCCAAACAAGUACCUAAAAC: 1.11
GCAGGAAGUAAAAACAAAUGUAAAUGCUUCGGAUAGUGGCAGGGGUGGGGGUUGCUAAGGAAAGGGUGGGAUGGGAGUGGGUAAAGAGUU: 0.0503
GUCCUGUGCUACACAUCGUAUGUACCGAAUCGGGGAGGGGAAAAAAAGGGGUUUGGGGAAAGUAUUAUGUUACGCCGUUCGGAUCUGCAC: -0.493
CCUGUGCUACACAUCGUAUGUACCGAAUCGGGGAAAAAGGGGAAAAAGGGGUUUUUGGGGAAAGUAUUAUGUUACGCCGUUCGGAUCUGC: 0.71
UCAUGGCUAUCAUUAGCCACAGGUACUGCUGAUUAUAAGGCCAGUAAAAUUUUAGUACCUGGAGGUUUGACUCUAAUUUUUGCACUGAUG: -2.24
AGUCCUGUGCUACACAUCGUAUGUACCGAAUCGGGGAGGGGAGGGGAAAAAAAGGGGAAAGUAUUAUGUUACGCCGUUCGGAUCUGCACU: 0.738
CAAGUCCUGUGCUACACAUCGUAUGUACCGAAUCGGGUUUUUGGGAAAGGGAGGGAAAGUAUUAUGUUACGCCGUUCGGAUCUGCACUUC: 0.195
UCCUGUGCUACACAUCGUAUGUACCGAAUCGGGGCCCCCCGGCCCCCCGGGGCCCCCCGGAAAGUAUUAUGUUACGCCGUUCGGAUCUGC: 0.453

Block 4
Target: CCNA1, cyclin fold, Cln2 fusion (human)
Technique: yeast growth competition, sequencing
Sample: yeast
Setting: weak parent motif
Baseline: not given
Reading: higher = stronger binding
Quantity: normalised enrichment score
Starting sequence: CDKN1B docking peptide (human); PSACRNLFGPVDH
C4T: -0.00595
N6V: 0.36
G9K: 0.495
H13W: 0.577
S2H: 0.383
A3D: 0.115
P1C: 0.132
V11F: 0.272
H13S: 0.212
L7F: 0.456
V11E: 0.403
D12C: 0.396
G9L: 0.525
P1H: 0.321

Block 5
Target: Centromere-binding protein 1, full length, His-tagged (CBF1, Saccharomyces cerevisiae, UniProt P17106, residues 1-351)
Sequence of UniProt P17106 (whole entry, looked up): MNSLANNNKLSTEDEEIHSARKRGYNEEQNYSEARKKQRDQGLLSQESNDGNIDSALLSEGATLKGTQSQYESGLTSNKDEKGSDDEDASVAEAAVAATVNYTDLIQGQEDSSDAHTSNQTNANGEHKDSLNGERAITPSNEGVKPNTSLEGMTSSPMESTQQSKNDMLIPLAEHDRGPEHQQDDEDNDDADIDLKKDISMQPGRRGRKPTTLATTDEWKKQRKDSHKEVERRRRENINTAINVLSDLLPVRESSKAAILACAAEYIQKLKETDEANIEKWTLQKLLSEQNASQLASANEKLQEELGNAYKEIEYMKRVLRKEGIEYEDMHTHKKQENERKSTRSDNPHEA
Technique: competition protein-binding microarray
Form: double-stranded DNA, one strand shown
Sample: in vitro
Tested at: 2 µM
Setting: whole 60-bp probe, lowest competitor level
Together with: Pho4 competitor, 0.05 µM
Reading: higher = stronger binding
Quantity: fluorescence intensity
Shared flanks, not repeated: … GTCTTGATTCGCTTGACGCTGCTG
CTTTCCCGATCTTGGAGAGTGGGTGTAGCACATTTG: 63.3 a.u.
TACAGCATATTTCGTCACGTGTGTTCGTCGAGCTGG: 6450 a.u.
CGACAGCTGCACCATCACGTGCCGATTGTCCTTATT: 3390 a.u.
TTTTCGATTTTCTGGCACGATGCTGACTTAGTACTA: 85.5 a.u.
AATTGTGCCAAAAATCACCTGTTATGGCTGACTTGA: 133 a.u.
GACGATGATAAACAGCACGATGTTTCCCCCGGCGGC: 78.7 a.u.
CAATTTCATATTCACCACGTGCCGAACTTTGGGATG: 2470 a.u.
ATTCCTCGGAGGTAACATGTGCTGCAAAGGCCATGA: 133 a.u.
GAAAGGAAATGCTGTCATGTGAGTTAGGTGTAGAGC: 473 a.u.
CGGTCGGATGGAAAACACGTGACAAGAAAGTCCCCG: 9860 a.u.
CGTCCTAGTGATTGTCACATGACTTCCATGAGGAAG: 3590 a.u.

Block 6
Target: PABPC1L2, full length, GST fusion (mouse, UniProt A0ABA7IW68)
Technique: RNAcompete
Form: RNA
Sample: in vitro
Tested at: 20 nM
Setting: 7-mer, probes averaged, single round
Baseline: mean of 7-mers
Reading: higher = stronger binding
Quantity: 7-mer Z-score
Residues (chain): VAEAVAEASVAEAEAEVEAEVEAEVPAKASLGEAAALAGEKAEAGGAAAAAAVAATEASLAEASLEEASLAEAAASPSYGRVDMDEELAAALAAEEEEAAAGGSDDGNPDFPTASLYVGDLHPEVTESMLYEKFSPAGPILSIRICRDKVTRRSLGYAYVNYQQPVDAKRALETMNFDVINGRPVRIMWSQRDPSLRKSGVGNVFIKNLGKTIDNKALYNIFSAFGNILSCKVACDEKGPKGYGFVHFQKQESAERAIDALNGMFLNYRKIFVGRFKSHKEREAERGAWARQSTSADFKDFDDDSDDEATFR
UGAGAUU: -0.112
UCAGGCC: -0.269
CAUACUC: -0.186
GACUCGU: -0.508
GAACGCG: -0.155
GCGCCAA: 0.00617
CCGACAG: -0.113
GUUGCAU: -0.121
GUCGAAG: -0.157
UUCGUGA: -0.237
GCGUGGC: 0.00798
ACAUAUG: 0.0406
GAACCUU: -0.206
GCUUUGC: -0.387
